Assay results gathered from unrelated publications.
Each numbered part is a random draw from the data of one study; scales do not carry over between parts. Substitutions count along the parent as printed.

Block 1
Target: Centromere-binding protein 1, full length, His-tagged (CBF1, Saccharomyces cerevisiae, UniProt P17106, residues 1-351)
Sequence of UniProt P17106 (whole entry, looked up): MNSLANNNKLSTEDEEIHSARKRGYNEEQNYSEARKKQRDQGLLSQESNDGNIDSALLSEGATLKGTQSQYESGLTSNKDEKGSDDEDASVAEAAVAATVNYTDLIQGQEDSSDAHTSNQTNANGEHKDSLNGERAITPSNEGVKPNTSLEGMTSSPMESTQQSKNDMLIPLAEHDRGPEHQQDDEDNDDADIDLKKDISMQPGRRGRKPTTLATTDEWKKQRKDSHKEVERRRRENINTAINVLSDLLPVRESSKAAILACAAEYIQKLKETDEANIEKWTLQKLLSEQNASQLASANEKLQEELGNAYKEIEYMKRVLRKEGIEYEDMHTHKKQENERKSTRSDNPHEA
Technique: competition protein-binding microarray
Molecule type: double-stranded DNA, one strand shown
Medium: in vitro
Concentration: 2 µM
Notes: whole 60-bp probe, lowest competitor level
With: Pho4 competitor, 0.05 µM
Reading: higher = stronger binding
Shared flanks, not repeated: … GTCTTGATTCGCTTGACGCTGCTG
| Strand | fluorescence intensity [a.u.] |
| --- | --- |
| AAAGCGGTAATTTGCGGCGTGGGTGCAGATATCTAT | 82.3 |
| GGGAAAAAAATTGACCACGTGACTCGAGAATCAACT | 15400 |
| GCCCGGTCGTTTGGATGCGTGGGTAGTATAGTTTCT | 63 |
| CGTCCTAGTGATTGTCACCATACTTCCATGAGGAAG | 92.8 |
| AGCTGCAATTAATGCAGTTGAGAACTAGCTTTTTTT | 90.7 |
| TGAAAGGTTCTTTGACACATGTAAAGCTCCCTAAGT | 98.5 |
| AAAGCGGTAATTTGCCGTGTGGGTGCAGATATCTAT | 78.7 |
| CTTGCATGGGTGGTGCCCGTGGAGGACGCTCCTAGT | 62.6 |
| TTAACTGCCCAAGGACACATGCCCTGGGCTGGAACC | 59.8 |
| CTTCTGTAAATTTGCAGAGTGGGTGGACGCGCCCCG | 66.1 |
| CGCATATTTCCATAGCGCGTGACGGTAAGTACAAGA | 513 |
| AAGCATCCTTGTTTGCACGGGATGCCCTGCACAGTA | 134 |
| CTTTCCCGATCTTGTCACCTCACTTTAGCACATTTG | 74.4 |
| CTTCTGTAAATTTGACGAGTGGGTGGACGCGCCCCG | 82 |
| CGGGGTTAAGTTTGCACCGTGGGTGGCTTGCAGCAG | 74 |
| GCCGAGGGTAACTTCCACGGGAGAACCTTCGGTGCT | 53.2 |
| CGGGGTTAAGTTTGGATCGTGGGTGGCTTGCAGCAG | 78.5 |
| CATACCCAACCTTGGAAAGTGGGTGAAGATATTTGT | 70.6 |
| TGGCGGCGGGATCTACACGTGCGCCTCGGGAAGGCG | 760 |
| GCAAACTTGTTATTGCACGTTAAGTTTTGGGCTCAA | 120 |
| CGTCCTAGTGATTGGTCCGTGGGTGCCATGAGGAAG | 76.2 |
| TGAGGGTGAGTATGGCATGTGGTGGTGGGATTGGAG | 84.5 |
| TCTGAACTAAAAAAAGGCGTGCCAGATACTATATAT | 131 |
| GTCTTGTCTCATTGAGAGGTGGGTGTCCCCACTTCA | 68.8 |
| TCCACCTCAAACGGCCACGCTCTGCTTTTTTTCTAT | 96 |

Block 2
Target: ABI1, truncated, D143A, DHFR fusion (Arabidopsis thaliana)
Technique: DHFR PCA, deep sequencing
Medium: yeast
Notes: methotrexate growth selection, single substitutions
With: (+)-ABA 0.11 µM
Baseline: wild-type fitted maximum
Reading: higher = stronger binding
Starting sequence: PYL1, truncated, DHFR fusion (Arabidopsis thaliana); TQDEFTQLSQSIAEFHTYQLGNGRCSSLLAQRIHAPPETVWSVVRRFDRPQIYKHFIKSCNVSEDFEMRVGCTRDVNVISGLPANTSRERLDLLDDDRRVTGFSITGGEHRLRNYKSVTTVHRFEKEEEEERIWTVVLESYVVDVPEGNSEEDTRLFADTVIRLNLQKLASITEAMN
| Substitution | relative binding score |
| --- | --- |
| T135Q | -3.42% |
| C72K | 6.79% |
| E89G | 4% |
| V142L | -1.45% |
| E64R | 27.4% |
| Q31K | 19.2% |
| E147P | 35.4% |
| L28S | -0.149% |
| W41K | -8.03% |
| S9L | 32.2% |
| T39Y | 7.21% |
| N85Y | 64% |
| T101W | 1.44% |
| E139T | 27.4% |
| E128L | 10.9% |
| L112K | -0.356% |
| R69S | 19.5% |
| R32D | 1.13% |
| W134N | 9.95% |

Block 3
Target: RING finger protein unkempt homolog, zinc fingers 1-6, GST-SBP tag (UNK, Homo sapiens, UniProt Q9C0B0, residues 30-357)
Technique: RNA Bind-n-Seq
Molecule type: RNA
Medium: in vitro
Concentration: not given
Notes: RNA with constant flanks, human and mouse sites, ends assumed
Baseline: input RNA pool
Reading: higher = stronger binding
Shared flanks, not repeated: GGGAGUUCUACAGUCCGACGAUC … CAACAGAGGAUUGAGCAUCA
Target sequence (chain): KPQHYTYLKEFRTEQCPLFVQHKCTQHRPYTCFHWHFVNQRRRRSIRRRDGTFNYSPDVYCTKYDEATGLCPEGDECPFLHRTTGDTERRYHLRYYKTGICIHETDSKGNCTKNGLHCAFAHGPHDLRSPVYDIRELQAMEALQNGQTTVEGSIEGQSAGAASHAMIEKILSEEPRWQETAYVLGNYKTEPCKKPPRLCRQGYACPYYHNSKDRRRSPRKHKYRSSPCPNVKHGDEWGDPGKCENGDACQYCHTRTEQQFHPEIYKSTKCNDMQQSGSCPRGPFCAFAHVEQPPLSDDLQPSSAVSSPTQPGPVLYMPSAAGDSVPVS
| Strand | bound/input enrichment [ratio] |
| --- | --- |
| AGUCUUCAGGAUACUGUAGCUUCCUCUGUAGAGAACUUCGUUUUAAUAGACACUGUACAAUAGUGGUGUUUUACUUCACUGAAUCACACCUUUGUUCUGAAAGUGUGAUACAGAGUAUAA | 2.15 |
| GAGCAGAGCUCGCCCCAGUCGGCCAAGCAGAAGUGUGUGUGUCUGGCUGUGGAAGAUUGGGAUUUGCUCAAUUCCUACUGACUGACACAUACAGUCGACCUCCCCCACCUCAGUACGAGG | 0.0517 |
| AAUGUGCUGCUCACAAGUUCUGACUCAAGUGUAAUUAUUCAACAAGCAGUACCUUCACCAACCUCAAGUACUGUAAUCACCCAGGCACCAUCCUCUAACAGGCCAAUUGUUCCUGUACCA | 0.118 |
| GGUCAUCGCGCCCUUUCCCCUGCCGGUGUCCUGCUCGCCGUCCCCGCCAUGCUGUCUCUAGACUUUUUGGACGAUGUGCGGCGGAUGAACAAGCGGCAGCUCUAUUAUCAAGUCCUAAAU | 0.108 |
| AUAAGGACAUGGACAUCAUCACCAAGUUCCUGAAGUUUCUUCUUGGUGUUUGGGCUAAAGAACUGAAUGCCAGAGAGGACUACGUGAAACGCAGUGUGCAGGGCAAACUGAACAGUGCUA | 0.125 |
| CUGAAAGAAAUUCAAGCCAUGAGCCAAUGCAGCCAUCCCAACGUAGUGACUUAUUACACCUCCUUUGUGGUCAAAGAUGAGCUGUGGCUGGUCAUGAAAUUACUAAGUGGAGGUUCCAUG | 0.287 |
| AUACCUCCAACAGGGUCACUGUCAAGAACCUCGAUUAUAGCAGGAAGCUGAAAAACGUGCUAGUGACCAUUUACUGGCUGGGGAAAGCUGCAAACAGCUGUGCAUCCUACGGUGGAACCA | 0.159 |
| AAUAGCCUUCUAUUUUUAAUAGGAACCUAGAGAAUACUUAGGAUUAUCUAGAGUUGUUUCUUUAGAAUCUAGAACUAUUUAUUUGUAUUUAAACAAUGUCUAUGAUUUGUACCAAUUCUU | 1.88 |
| CAAGACAAGUUUCAGAUCAUGUCAGACCAGAUCAUCGGAAGGAUAGAUGACAUGAGCAGUCGGAUUGACGACCUGGAGAAGAAUAUCGCUGACCUCAUGACCCAGGCUGGAGUAGAAGAA | 0.541 |
| GUUGAUGUGGAUUCUCUUGCUGAGUUAGAUGAUGGAAUGGCUUCCAAUCAAAAUUCUCCCAUUAGAACUUUUGGUCUCAAUCUUUCUUCGGAUUCUUCAGCACUAGGGGCUGUUGCUUCU | 5.29 |
| GAAGUUCUGCGCCAGAAGCUUUUUGCACUGCAAGCUGAAAUCCAUCGACUAAAGAAGGAAGAGCAGCAGCAGGAAGAAGAAGCAGCAGCUUUGGUCCAGCAUAAGCUGCCGCCUUAUGUU | 0.109 |

Block 4
Target: RNA binding protein fox-1 homolog 2, RRM domain, GST-SBP tag (RBFOX2, Homo sapiens, UniProt O43251-10, residues 100-194)
Technique: RNA Bind-n-Seq
Molecule type: RNA
Medium: in vitro
Concentration: 365 nM
Notes: natural RNA segment, single round, ends assumed
Baseline: no-protein control
Reading: higher = stronger binding
Shared flanks, not repeated: GGGAGUUCUACAGUCCGACGAUC … UGGAAUUCUCGGGUGCCAA
Construct (chain): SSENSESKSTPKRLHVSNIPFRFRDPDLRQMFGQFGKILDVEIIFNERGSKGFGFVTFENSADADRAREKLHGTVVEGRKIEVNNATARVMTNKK
| Strand | RBNS enrichment (R) |
| --- | --- |
| GGUUUCUAAUAUGUAUGACCAAUGUAGCCAUUGCUUUGAAAUGUAAAUAUAAACACGUCCUAUCCGACUAUUGGCUUUGGGGUAUUUGUCGGGCUGGAGUCCUCACACAC | 0.535 |
| CCAGCCAGUGUGGGUCUGAACAUCCCCGCCCACCCCCAGACUGCAUUCUCAUCAGGGUUUCUUGUGCCCUUCUGCUGUGGCAGUGACAACUGUGCCUAGCCGGGGCUGCC | 1.02 |
| UGUCUCUCUAGAAGAGCUUAUGCAAGCUUGGGGAUCUAGAUGAUUAAAUCCUUCAGGGGCGGGGACCGCCUUGCUCGGGAAGGAAGGUGCCAUGGCCUGCACCGUGGCGG | 0.273 |
| AACCCUGUCUUGAGAAAAACCAAUGAACAAAAAGGAAUUCCUUUCUUAAAAACGUUUAAUGCCAGGCUGUGGUCAAAAUCUCUAUUUUAUUUGUUUCUCCAGUAUAUAGC | 0.98 |
| CAGACAAUAAUUUGAAGCGUCUGUAUUCAGCAAAGAUAAAUACAGCAGUCCAGUCUAUAGGUGCUCUACUUAGCAUUCUUUUCAUGUGCUCCUGGUCUCUGUCUCACUCA | 0.272 |
| AAUUAUGUAUUUCUUUGUUAUUUUAUCUUGAAGACGGUACAUAUUUUCGUAUUUGUGCAGAAAAACAAAUUAGGCCUAAAGUAUUGGUUUUUACCUGUACCAUCCACUCC | 0.317 |
| ACGGCAUGCAGAAGGCUUUAUUUUAAAGUCAUUCCAUCAGAGGUGUUCUCAGAAUUAGACCCCACCUGUACUGUGUUCUAACACUGAGGGUGGUGGCACCUGAUUCAGAG | 0.265 |
| GCAGGGGCCUUGGGGCUCCUGGAAGCCGUGAGGUUUCUGUUUAGGCCUUAACCGAAGGCAACCUCUGCUCCAGAUGGAUGGUACCAGUAGCUUCUUAAUUCCAAUACUAA | 0.238 |
| GAUGCUUCUACUGUUAUGUUUUAUCUGCCCAUUUAUCUUUCUUAGUUACCAGGAGAAAUGUGUGACACCUAUAUUAUAAUGAAAACAAUCUCAUUACUUAUAGUUUAUCU | 1.06 |
| UGUGGCUUGUGGCUCAUGCGCCAUUCCUGGUUGUCUGUUGAAUCUUUCUGGCUGCUGGAAUUGGAGAUAGGAUGUUUUGCUUCCCACUGCAGGAGAGCUGCCCCCUUUCA | 0.269 |
| AUACACAUGGAGUAAUUGAAUGACUUUCUCUUUUGGCAUCUGUAUGUGCAGAAUACUCAACAAUGUUCAAAGACCUUCUUAACUAUUCAGAAGGCAGGAAGUCCUACACC | 0.505 |
| UACCACAUUUGUGCCCCACUGACCUGAAGGUUCCAUGUAACUGUAUACACAUGAAUACUUAAAUGCCAACAUUUAAAAUAAUUUGAUAAAGUCUUUGUAGCCACUCAGCC | 0.364 |

Excerpt of the above (block 3):
| Strand | bound/input enrichment [ratio] |
| --- | --- |
| GGUCAUCGCGCCCUUUCCCCUGCCGGUGUCCUGCUCGCCGUCCCCGCCAUGCUGUCUCUAGACUUUUUGGACGAUGUGCGGCGGAUGAACAAGCGGCAGCUCUAUUAUCAAGUCCUAAAU | 0.108 |
| AAUAGCCUUCUAUUUUUAAUAGGAACCUAGAGAAUACUUAGGAUUAUCUAGAGUUGUUUCUUUAGAAUCUAGAACUAUUUAUUUGUAUUUAAACAAUGUCUAUGAUUUGUACCAAUUCUU | 1.88 |
| CUGAAAGAAAUUCAAGCCAUGAGCCAAUGCAGCCAUCCCAACGUAGUGACUUAUUACACCUCCUUUGUGGUCAAAGAUGAGCUGUGGCUGGUCAUGAAAUUACUAAGUGGAGGUUCCAUG | 0.287 |
| AAUGUGCUGCUCACAAGUUCUGACUCAAGUGUAAUUAUUCAACAAGCAGUACCUUCACCAACCUCAAGUACUGUAAUCACCCAGGCACCAUCCUCUAACAGGCCAAUUGUUCCUGUACCA | 0.118 |
| AUACCUCCAACAGGGUCACUGUCAAGAACCUCGAUUAUAGCAGGAAGCUGAAAAACGUGCUAGUGACCAUUUACUGGCUGGGGAAAGCUGCAAACAGCUGUGCAUCCUACGGUGGAACCA | 0.159 |
| CAAGACAAGUUUCAGAUCAUGUCAGACCAGAUCAUCGGAAGGAUAGAUGACAUGAGCAGUCGGAUUGACGACCUGGAGAAGAAUAUCGCUGACCUCAUGACCCAGGCUGGAGUAGAAGAA | 0.541 |
| AGUCUUCAGGAUACUGUAGCUUCCUCUGUAGAGAACUUCGUUUUAAUAGACACUGUACAAUAGUGGUGUUUUACUUCACUGAAUCACACCUUUGUUCUGAAAGUGUGAUACAGAGUAUAA | 2.15 |
| GAAGUUCUGCGCCAGAAGCUUUUUGCACUGCAAGCUGAAAUCCAUCGACUAAAGAAGGAAGAGCAGCAGCAGGAAGAAGAAGCAGCAGCUUUGGUCCAGCAUAAGCUGCCGCCUUAUGUU | 0.109 |
